Assay results from different studies.
A part holds a random share of what one study measured. Substitutions count along the parent as printed.

Series 1
Target: ABI1, truncated, D143A, DHFR fusion (Arabidopsis thaliana, UniProt P49597)
Technique: DHFR PCA, dose-response
Matrix: yeast
Notes: Hill fit, mean, not affinity
Together with: (+)-ABA, dose series
Reading: lower = more sensitive
Parent: PYL1, truncated, DHFR fusion (Arabidopsis thaliana, UniProt Q8VZS8); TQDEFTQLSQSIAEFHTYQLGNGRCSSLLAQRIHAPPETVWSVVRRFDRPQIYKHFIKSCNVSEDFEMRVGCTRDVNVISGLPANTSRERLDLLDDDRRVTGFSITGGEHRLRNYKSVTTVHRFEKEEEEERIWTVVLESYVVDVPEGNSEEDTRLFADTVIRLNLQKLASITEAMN
The ABA EC50 of `R163C` is reported as 22.3 µM.
With `E127L` the ABA EC50 was 3.22 µM.
With `L164T` the ABA EC50 was 0.289 µM.
`E125G` gave an ABA EC50 of 2.38 µM.
With `R32S` the ABA EC50 was 3.53 µM.
`S171N` has an ABA EC50 of 2.47 µM.
For `K58G`, the ABA EC50 was 17.1 µM.
With `A13E` the ABA EC50 was 3.2 µM.
For `K126P`, the ABA EC50 was 0.676 µM.
The ABA EC50 of `S26C` is reported as 2.75 µM.
With `N85G` the ABA EC50 was 5.97 µM.
The ABA EC50 of `E109S` is reported as 3.32 µM.
With `C72K` the ABA EC50 was 23.4 µM.
`L20W` has an ABA EC50 of 4.46 µM.
With `E127F` the ABA EC50 was 2.45 µM.
The ABA EC50 of `E109M` is reported as 13.5 µM.
`E131R` has an ABA EC50 of 6.18 µM.
With `M176E` the ABA EC50 was 3.57 µM.
`I162K` gave an ABA EC50 of 364 µM.
`R49E` gave an ABA EC50 of 3.28 µM.
`D92C` has an ABA EC50 of 49.2 µM.
The ABA EC50 of `K126Y` is reported as 1.58 µM.
With `I12V` the ABA EC50 was 3.89 µM.
For `P36H`, the ABA EC50 was 2.27 µM.
`Q51D` has an ABA EC50 of 14.4 µM.

Series 2
Target: CEBPA, bZIP domain (human)
Technique: DHFR protein complementation
Matrix: yeast
Notes: single substitutions, most at no-binding floor
Relative to: wild-type JUN-FOS pair
Reading: higher = stronger binding
Parent: JUN, bZIP domain (human); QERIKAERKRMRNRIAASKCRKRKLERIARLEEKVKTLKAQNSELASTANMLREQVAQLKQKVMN; partner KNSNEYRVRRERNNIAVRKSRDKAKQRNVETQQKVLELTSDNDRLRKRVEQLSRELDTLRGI
For `E54H`, the binding fitness was -1.36 natural log.
The binding fitness of `L38P` is reported as -1.52 natural log.
`R30Q` has a binding fitness of -1.28 natural log.
For `K34G`, the binding fitness was -1.46 natural log.
`T37G` has a binding fitness of -1.47 natural log.
For `L31P`, the binding fitness was -1.48 natural log.
`A29Q` gave a binding fitness of -1.44 natural log.
`S47W` gave a binding fitness of -1.27 natural log.
`T37D` gave a binding fitness of -1.46 natural log.
For `K39M`, the binding fitness was -1.38 natural log.
`L52T` gave a binding fitness of -1.47 natural log.
`A46M` gave a binding fitness of -1.42 natural log.
With `Q55I` the binding fitness was -1.47 natural log.
`E54C` has a binding fitness of -1.55 natural log.
The binding fitness of `T48I` is reported as -1.36 natural log.
`L31M` has a binding fitness of -1.14 natural log.
`L52R` has a binding fitness of -1.49 natural log.
`E32I` gave a binding fitness of -1.54 natural log.
`A40H` gave a binding fitness of -1.51 natural log.
The binding fitness of `A46H` is reported as -1.49 natural log.

Series 3
Target: CCND3, cyclin fold, Cln2 fusion (human)
Technique: yeast growth competition, sequencing
Matrix: yeast
Notes: weak parent motif
Relative to: not given
Reading: higher = stronger binding
Parent: SLBP docking peptide (human); ARYKRKLLINDFG; partner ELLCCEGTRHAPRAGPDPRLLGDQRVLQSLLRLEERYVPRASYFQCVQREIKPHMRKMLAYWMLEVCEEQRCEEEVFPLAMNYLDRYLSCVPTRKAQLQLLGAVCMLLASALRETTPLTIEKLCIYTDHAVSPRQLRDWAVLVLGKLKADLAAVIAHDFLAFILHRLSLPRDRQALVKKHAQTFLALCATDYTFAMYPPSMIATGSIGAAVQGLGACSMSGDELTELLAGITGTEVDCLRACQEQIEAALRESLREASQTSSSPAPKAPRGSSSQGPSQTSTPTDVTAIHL
Under “normalised enrichment score”, `F12P` is recorded as 0.19.
For `G13L`, “normalised enrichment score” read 0.0432.
For `L8N`, “normalised enrichment score” read 0.166.
`R5N`: “normalised enrichment score” 0.14.
`Y3V`: “normalised enrichment score” 0.153.
`R5V`: “normalised enrichment score” 0.151.
`R5A L7A`: “normalised enrichment score” 0.292.
Under “normalised enrichment score”, `L8I` is recorded as 0.0975.
For `D11M`, “normalised enrichment score” read 0.22.
`K6E`: “normalised enrichment score” 0.148.
`I9Y`: “normalised enrichment score” 0.174.
Under “normalised enrichment score”, `R2T` is recorded as 0.232.
`R2N` — result for “normalised enrichment score”: 0.216.
Under “normalised enrichment score”, `L8K` is recorded as -0.013.
For `L7I`, “normalised enrichment score” read 0.0347.
`L8E`: “normalised enrichment score” 0.167.
`G13R`: “normalised enrichment score” 0.112.

Series 4
Target: Centromere-binding protein 1, full length, His-tagged (CBF1, Saccharomyces cerevisiae, UniProt P17106, residues 1-351)
UniProt P17106, sequence (whole entry, looked up): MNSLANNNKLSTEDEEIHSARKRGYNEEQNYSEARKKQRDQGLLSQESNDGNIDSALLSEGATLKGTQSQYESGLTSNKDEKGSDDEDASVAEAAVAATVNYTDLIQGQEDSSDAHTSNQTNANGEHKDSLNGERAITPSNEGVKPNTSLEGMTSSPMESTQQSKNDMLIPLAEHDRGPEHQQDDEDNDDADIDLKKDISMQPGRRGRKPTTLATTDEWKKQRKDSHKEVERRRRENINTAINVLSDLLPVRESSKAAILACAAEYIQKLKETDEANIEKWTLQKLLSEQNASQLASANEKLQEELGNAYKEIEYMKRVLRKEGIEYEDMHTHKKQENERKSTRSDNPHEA
Technique: competition protein-binding microarray
Form: double-stranded DNA, one strand shown
Matrix: in vitro
Tested at: 2 µM
Notes: whole 60-bp probe, lowest competitor level
Together with: Pho4 competitor, 0.05 µM
Reading: higher = stronger binding
With `GGATTTGGCTACGGCCACGTCCAATTTTCACTTGCTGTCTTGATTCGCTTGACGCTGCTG` the fluorescence intensity was 63.3 a.u.
For `AAAGCGGTAATTTGTCACCCCACTTCACATATCTATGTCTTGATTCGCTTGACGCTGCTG`, the fluorescence intensity was 79.6 a.u.
`TAGGGGCTCTCACAAAACGGGCACTACCTTTTGTTTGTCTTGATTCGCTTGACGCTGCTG` has a fluorescence intensity of 62.3 a.u.
`TGCGCAACAACTTGTCACGAGACTTTATGTCTAGAAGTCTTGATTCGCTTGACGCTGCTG` has a fluorescence intensity of 1370 a.u.
`CCAACTTTTTTGGATCACATGATAAGAGTTACTATTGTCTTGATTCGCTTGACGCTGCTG` has a fluorescence intensity of 2810 a.u.
With `CATCCTCTTACATCGCACGTGATGGTATACTACTAAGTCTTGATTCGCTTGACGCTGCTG` the fluorescence intensity was 4440 a.u.
The fluorescence intensity of `TGCGCAACAACTTGACATGTGGGTGTATGTCTAGAAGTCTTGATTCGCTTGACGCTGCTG` is reported as 90.9 a.u.
`TCAATTCTCCAGTACGGCGTGGGTACAGAACATGGCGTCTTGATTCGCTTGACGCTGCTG` gave a fluorescence intensity of 72.1 a.u.
`AAAGCGGTAATTTTTCACGTGAGATCAAATATCTATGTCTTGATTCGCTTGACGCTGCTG` gave a fluorescence intensity of 1800 a.u.
The fluorescence intensity of `GCAAAGAAATAGGATCGCGTGGAACTGGATCGTACAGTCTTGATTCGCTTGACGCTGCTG` is reported as 70.1 a.u.
With `AAATTACTAAGTTGAATTGTGGGTGACGCCGTATGAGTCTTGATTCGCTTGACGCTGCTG` the fluorescence intensity was 65 a.u.
The fluorescence intensity of `GATTGATATATCGGCCACGTTTGAGGACCAAGTTGCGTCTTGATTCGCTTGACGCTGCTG` is reported as 83.8 a.u.
For `TACAGGTCAATTCAACACGTGGTCGTTCTTCACCAGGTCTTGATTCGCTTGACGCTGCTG`, the fluorescence intensity was 1750 a.u.
`GATGAGTGAGGAGAAAACGTGCAAATAATAAAATTAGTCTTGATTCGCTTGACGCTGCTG` has a fluorescence intensity of 301 a.u.
With `TTATTTTATCAGAGCACCGTGGTCGACATCCAACGGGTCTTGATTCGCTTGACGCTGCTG` the fluorescence intensity was 60.9 a.u.
`CTAACGAAGGTTTGACTGGTGGGTGACAAGCCAAGTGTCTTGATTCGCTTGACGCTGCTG` has a fluorescence intensity of 78.8 a.u.
With `AAAGCGGTAATTTGTCAAGTGGGTGCAGATATCTATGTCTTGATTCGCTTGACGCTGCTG` the fluorescence intensity was 94.6 a.u.
The fluorescence intensity of `TTGACACCATGTTTGCACATGTTACCTGCCGACTACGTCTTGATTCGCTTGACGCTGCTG` is reported as 166 a.u.
`TGTGTAACAGAACCGGACGTGCTTTAGGCTGATGAAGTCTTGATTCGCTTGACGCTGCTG` gave a fluorescence intensity of 68 a.u.

Series 5
Target: Ras GTPase-activating protein-binding protein 1, full length (G3BP1, Homo sapiens, UniProt Q13283)
UniProt Q13283, sequence (whole entry, looked up): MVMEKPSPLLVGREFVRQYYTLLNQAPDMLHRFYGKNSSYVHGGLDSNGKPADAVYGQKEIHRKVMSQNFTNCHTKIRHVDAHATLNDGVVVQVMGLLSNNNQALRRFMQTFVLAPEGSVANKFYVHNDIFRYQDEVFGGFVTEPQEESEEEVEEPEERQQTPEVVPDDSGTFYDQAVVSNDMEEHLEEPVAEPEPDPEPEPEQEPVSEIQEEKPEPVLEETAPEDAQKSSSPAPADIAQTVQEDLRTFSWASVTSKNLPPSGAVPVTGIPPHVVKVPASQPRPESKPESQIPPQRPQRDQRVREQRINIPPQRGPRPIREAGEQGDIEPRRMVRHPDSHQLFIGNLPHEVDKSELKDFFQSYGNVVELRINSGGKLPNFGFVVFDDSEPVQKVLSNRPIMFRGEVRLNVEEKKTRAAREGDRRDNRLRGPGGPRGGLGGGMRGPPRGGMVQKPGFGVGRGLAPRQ
Technique: RNA Bind-n-Seq
Form: RNA
Matrix: in vitro
Tested at: 200 nM
Notes: whole 134-nt RNA, ends assumed
Together with: 150 mM LiCl
Relative to: input library
Reading: higher = stronger binding
All molecules: 7-deaza-guanosine replaces G
`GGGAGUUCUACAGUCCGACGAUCCGCAGAAGUCGCGUGUCUAGGUGAGUCGCGGUGGGUCCUCGCUUGCAGUUCAGCGACCACGGUGGGUACCGUUUUUGCGAGGAUUGUUUGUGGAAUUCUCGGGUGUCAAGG` gave a log2 enrichment of -0.636.
For `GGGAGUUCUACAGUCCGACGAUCCAAGUCCUGUGCUACACAUCGUAUGUACCGAAUCGGGUUUUUUUGGGUGGGUGGGAAAGUAUUAUGUUACGCCGUUCGGAUCUGCACUUCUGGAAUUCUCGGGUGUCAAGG`, the log2 enrichment was 0.254.
`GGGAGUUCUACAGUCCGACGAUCCAAGUCCUGUGCUACACAUCGUAUGUACCGAAUCGGGGAAAGGGGAAAGGAAAGGGAAAGUAUUAUGUUACGCCGUUCGGAUCUGCACUUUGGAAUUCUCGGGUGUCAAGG` has a log2 enrichment of -0.478.
For `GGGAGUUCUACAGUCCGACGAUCCUGUGCUACACAUCGUAUGUACCGAAUCGGGAAAAAAAGGGGAAAAAAAGGAAAAAAAGGGAAAGUAUUAUGUUACGCCGUUCGGAUCUGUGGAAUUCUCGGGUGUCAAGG`, the log2 enrichment was -0.0192.
The log2 enrichment of `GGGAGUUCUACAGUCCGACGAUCUAACUUUAGAGGAGGAUCCGAUGGAUAUGGCAGUGGACGUGGAUUUGGGGAUGGCUAUAAUGGGUAUGGAGGAGGACCUGGAGGUGGCAAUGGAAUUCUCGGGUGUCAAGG` is reported as 0.0128.
For `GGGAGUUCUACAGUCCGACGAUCUGGGAGGUGGAUUUUGUUUAUUUUUUUAGCUCAUUUCCAGGGGUGGGAAUUUUUUAUUAAUAUGUGUCAUGAAUAAAGUUGUUUUUGAAAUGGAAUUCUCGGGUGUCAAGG`, the log2 enrichment was -0.608.
With `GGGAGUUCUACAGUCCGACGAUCACCAUGCAGGUGGGCAUCUUUCGGAAGUGGGGCAAGGGGGGGAUAGGGAGGGGGGUAACACUUUGGGAACAGGUGGUCCCAGGUCGUUUCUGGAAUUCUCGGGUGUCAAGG` the log2 enrichment was 0.405.
With `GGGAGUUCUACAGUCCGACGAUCCACAGACAACACGCACCCACACAGACACAGAGGGAAGGGGUUGGGAUGGGGACAGGGUGCACAGCAGGGAGGGGUAGGACCCCAGCCCCUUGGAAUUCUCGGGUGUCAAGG` the log2 enrichment was 0.386.

For quick reference, copied from above (series 4):
`AAAGCGGTAATTTTTCACGTGAGATCAAATATCTATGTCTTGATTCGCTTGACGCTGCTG` gave a fluorescence intensity of 1800 a.u.
The fluorescence intensity of `GCAAAGAAATAGGATCGCGTGGAACTGGATCGTACAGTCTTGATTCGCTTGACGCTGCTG` is reported as 70.1 a.u.
With `AAATTACTAAGTTGAATTGTGGGTGACGCCGTATGAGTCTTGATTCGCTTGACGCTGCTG` the fluorescence intensity was 65 a.u.
The fluorescence intensity of `GATTGATATATCGGCCACGTTTGAGGACCAAGTTGCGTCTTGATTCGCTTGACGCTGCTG` is reported as 83.8 a.u.
For `TACAGGTCAATTCAACACGTGGTCGTTCTTCACCAGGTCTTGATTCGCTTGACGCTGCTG`, the fluorescence intensity was 1750 a.u.
`GATGAGTGAGGAGAAAACGTGCAAATAATAAAATTAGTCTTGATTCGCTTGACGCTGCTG` has a fluorescence intensity of 301 a.u.
With `TTATTTTATCAGAGCACCGTGGTCGACATCCAACGGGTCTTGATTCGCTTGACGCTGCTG` the fluorescence intensity was 60.9 a.u.
`CTAACGAAGGTTTGACTGGTGGGTGACAAGCCAAGTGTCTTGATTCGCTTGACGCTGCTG` has a fluorescence intensity of 78.8 a.u.
With `AAAGCGGTAATTTGTCAAGTGGGTGCAGATATCTATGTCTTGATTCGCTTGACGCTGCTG` the fluorescence intensity was 94.6 a.u.
